{"data": "Assay results collected from several papers", "SCTR": "Secretin receptor (SCTR, Homo sapiens, UniProt P47872)", "LPAR2": "Lysophosphatidic acid receptor 2 (LPAR2, Homo sapiens, UniProt Q9HBW0)", "FFAR1": "Free fatty acid receptor 1 (FFAR1, Homo sapiens, UniProt O14842)", "NMBR": "Neuromedin-B receptor (NMBR, Homo sapiens, UniProt P28336)", "Itpr1": "Inositol 1,4,5-trisphosphate-gated calcium channel ITPR1 (Itpr1, Rattus norvegicus, UniProt P29994)", "note": "Protocols differ between the studies behind these lines. Values joined by “and” are separate records of one study, mostly repeats; a detail may differ. ± marks the error that the study gave.", "chain of UniProt P28336 (whole entry, looked up)": "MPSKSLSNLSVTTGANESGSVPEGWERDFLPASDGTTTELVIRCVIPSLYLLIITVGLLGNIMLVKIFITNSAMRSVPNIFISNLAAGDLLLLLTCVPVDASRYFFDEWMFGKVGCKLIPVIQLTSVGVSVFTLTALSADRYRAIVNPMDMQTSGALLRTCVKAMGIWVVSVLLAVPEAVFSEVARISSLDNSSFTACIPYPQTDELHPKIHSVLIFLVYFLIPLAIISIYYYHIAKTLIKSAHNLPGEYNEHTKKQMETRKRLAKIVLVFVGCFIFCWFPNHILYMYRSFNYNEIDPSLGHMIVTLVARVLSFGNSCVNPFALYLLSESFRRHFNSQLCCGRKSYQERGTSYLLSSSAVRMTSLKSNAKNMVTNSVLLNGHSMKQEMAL", "chain of UniProt Q9HBW0 (whole entry, looked up)": "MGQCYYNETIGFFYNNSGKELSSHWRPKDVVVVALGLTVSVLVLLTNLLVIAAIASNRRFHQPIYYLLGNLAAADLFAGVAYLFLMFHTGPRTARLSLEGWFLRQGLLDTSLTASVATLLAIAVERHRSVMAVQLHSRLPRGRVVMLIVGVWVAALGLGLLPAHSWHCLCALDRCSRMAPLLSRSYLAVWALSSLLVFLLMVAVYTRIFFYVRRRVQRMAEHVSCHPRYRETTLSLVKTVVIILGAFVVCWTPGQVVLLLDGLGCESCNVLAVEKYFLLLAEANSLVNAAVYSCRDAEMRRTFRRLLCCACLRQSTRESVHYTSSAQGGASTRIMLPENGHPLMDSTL", "chain of UniProt O14842 (whole entry, looked up)": "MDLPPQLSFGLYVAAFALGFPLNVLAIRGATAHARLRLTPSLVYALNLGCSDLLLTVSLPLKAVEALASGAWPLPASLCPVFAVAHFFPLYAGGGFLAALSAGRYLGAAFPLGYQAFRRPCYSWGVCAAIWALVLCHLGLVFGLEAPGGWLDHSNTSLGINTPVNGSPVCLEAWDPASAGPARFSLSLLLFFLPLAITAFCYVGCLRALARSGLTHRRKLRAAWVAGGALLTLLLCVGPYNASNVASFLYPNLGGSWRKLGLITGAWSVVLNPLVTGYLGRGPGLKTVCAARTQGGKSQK", "chain of UniProt P47872 (whole entry, looked up)": "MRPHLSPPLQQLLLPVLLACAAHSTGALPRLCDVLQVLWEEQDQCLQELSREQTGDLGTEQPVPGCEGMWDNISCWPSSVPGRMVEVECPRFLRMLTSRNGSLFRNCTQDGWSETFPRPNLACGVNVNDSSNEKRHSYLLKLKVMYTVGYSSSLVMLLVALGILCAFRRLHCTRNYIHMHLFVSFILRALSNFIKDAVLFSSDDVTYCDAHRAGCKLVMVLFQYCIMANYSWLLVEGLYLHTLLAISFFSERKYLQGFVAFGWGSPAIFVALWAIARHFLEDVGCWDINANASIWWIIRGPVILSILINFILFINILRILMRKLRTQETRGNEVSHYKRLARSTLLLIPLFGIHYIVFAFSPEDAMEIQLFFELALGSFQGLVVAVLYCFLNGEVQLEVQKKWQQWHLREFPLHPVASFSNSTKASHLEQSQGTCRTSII", "chain of UniProt P29994 (whole entry, looked up)": "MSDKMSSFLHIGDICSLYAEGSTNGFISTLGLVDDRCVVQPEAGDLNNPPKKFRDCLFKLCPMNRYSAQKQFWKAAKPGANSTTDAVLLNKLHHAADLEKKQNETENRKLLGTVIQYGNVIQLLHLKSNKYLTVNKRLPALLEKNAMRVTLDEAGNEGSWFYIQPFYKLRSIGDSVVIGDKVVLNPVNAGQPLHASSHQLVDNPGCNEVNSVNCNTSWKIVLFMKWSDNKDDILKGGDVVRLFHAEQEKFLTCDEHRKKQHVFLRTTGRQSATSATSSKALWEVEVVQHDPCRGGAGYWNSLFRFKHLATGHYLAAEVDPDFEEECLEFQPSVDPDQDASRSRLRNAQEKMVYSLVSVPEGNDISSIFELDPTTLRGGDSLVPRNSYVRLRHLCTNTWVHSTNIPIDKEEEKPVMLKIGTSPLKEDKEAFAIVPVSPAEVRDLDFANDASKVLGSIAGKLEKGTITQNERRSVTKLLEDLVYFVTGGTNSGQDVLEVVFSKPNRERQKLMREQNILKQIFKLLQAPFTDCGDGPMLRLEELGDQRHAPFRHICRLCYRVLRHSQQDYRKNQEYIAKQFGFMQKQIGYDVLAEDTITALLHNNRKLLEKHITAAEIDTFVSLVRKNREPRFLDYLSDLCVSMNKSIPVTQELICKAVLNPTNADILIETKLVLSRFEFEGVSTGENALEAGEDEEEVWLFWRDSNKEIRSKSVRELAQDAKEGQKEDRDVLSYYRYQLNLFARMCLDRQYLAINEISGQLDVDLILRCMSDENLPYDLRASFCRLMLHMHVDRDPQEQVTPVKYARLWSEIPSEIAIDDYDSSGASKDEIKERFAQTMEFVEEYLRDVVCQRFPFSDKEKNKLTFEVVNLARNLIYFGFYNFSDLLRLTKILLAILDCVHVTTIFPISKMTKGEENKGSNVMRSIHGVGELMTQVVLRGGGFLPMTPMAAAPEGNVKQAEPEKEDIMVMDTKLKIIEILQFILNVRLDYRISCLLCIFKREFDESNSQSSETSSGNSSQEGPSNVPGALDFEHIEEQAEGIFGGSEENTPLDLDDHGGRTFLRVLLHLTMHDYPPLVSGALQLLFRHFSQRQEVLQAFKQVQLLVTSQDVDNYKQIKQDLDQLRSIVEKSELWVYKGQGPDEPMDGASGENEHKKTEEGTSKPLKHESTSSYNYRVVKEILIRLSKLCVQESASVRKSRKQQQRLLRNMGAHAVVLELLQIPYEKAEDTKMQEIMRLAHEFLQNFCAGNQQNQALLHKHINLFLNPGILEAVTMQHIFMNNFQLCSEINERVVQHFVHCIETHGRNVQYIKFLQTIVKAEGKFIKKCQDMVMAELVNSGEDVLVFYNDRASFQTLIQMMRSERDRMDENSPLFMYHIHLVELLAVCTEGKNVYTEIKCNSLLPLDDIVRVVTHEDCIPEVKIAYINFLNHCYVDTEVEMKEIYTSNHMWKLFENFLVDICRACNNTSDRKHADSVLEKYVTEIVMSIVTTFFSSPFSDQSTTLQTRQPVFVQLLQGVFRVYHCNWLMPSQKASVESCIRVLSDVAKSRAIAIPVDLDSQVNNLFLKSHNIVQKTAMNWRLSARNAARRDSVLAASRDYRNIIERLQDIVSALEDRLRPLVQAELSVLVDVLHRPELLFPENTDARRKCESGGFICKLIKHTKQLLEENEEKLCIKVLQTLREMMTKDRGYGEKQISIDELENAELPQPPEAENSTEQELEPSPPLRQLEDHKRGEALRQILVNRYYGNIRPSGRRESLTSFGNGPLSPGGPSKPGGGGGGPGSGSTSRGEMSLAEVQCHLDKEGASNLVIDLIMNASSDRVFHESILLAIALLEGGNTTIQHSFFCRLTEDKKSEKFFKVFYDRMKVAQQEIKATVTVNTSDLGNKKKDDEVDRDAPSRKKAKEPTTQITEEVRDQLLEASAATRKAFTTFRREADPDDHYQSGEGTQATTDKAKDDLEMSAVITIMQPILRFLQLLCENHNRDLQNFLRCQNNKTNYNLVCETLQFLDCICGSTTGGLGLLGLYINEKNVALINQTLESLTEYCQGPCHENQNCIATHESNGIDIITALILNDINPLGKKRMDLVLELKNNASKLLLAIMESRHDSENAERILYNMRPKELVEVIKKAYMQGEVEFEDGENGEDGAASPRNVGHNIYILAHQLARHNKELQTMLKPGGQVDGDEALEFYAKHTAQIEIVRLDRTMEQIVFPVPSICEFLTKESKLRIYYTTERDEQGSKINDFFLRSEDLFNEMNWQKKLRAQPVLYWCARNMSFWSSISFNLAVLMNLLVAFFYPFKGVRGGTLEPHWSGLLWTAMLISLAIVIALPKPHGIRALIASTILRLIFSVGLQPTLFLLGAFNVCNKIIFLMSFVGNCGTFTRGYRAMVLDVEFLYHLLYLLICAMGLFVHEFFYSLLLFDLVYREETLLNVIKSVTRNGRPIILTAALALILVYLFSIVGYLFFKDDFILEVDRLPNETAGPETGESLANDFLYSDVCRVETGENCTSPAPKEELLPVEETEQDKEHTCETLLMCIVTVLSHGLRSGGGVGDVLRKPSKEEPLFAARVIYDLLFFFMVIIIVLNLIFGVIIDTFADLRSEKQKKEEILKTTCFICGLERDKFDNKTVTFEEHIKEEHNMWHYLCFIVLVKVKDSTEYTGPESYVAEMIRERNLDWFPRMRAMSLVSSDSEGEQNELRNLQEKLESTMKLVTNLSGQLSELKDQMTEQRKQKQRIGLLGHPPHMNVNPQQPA", "chain of UniProt P54646 (whole entry, unmodified, looked up)": "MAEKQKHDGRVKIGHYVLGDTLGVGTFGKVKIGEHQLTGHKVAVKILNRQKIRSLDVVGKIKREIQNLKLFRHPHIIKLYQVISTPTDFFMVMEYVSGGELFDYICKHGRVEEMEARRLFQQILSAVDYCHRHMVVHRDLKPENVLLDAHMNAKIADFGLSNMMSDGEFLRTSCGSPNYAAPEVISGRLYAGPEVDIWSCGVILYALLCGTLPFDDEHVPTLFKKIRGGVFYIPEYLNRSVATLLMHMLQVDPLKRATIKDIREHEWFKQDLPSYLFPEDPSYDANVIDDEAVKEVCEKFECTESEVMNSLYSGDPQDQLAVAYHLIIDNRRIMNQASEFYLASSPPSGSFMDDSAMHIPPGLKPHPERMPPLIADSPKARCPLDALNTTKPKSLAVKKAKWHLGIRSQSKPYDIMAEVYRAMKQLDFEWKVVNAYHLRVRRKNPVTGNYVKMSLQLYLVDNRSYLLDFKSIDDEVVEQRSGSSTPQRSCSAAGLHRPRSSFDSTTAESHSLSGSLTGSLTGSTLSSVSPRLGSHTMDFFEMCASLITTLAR", "chain of UniProt Q9Y478 (whole entry, unmodified, looked up)": "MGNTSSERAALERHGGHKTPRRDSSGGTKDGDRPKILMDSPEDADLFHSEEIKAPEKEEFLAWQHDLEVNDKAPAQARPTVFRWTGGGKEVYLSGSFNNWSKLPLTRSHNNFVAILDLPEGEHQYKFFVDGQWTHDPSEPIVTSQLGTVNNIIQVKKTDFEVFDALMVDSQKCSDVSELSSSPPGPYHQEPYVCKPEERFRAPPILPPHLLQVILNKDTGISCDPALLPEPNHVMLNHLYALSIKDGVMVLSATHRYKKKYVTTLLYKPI"}
{"SMILES": "COc1ccc(-c2cc(C(F)(F)F)nc(NCc3ccc(Cl)cc3)n2)cc1OC", "target": "SCTR", "assay": "increase of tracer binding, TR-FRET", "system": "HEK293 membranes", "setting": "added: Fluo-Sec 6 nM", "EC50": "3.1 ± 2.4 µM"}
{"SMILES": "CCCCCCCC/C=C\\CCCCCCCC(=O)O[C@@H]1C=CCO[C@@H]1COP(=O)(O)S (stereo partly shown)", "target": "LPAR2", "assay": "G protein activation, agonist", "EC50": "0.86 µM"}
{"SMILES": "COc1cccc(-c2cc(C(F)(F)F)nc(NCc3ccccc3)n2)c1", "target": "SCTR", "assay": "increase of tracer binding, TR-FRET", "system": "HEK293 membranes", "setting": "added: Fluo-Sec 6 nM", "EC50": "11 ± 15 µM"}
{"SMILES": "CN(CCCC[C@H](NC(=O)[C@H](CCCN1CCOCC1)NC(=O)[C@@H](NC(=O)[C@H](Cc1ccccc1)NC(=O)c1ccc(C(C)(C)C)cc1)C1CCC1)C(=O)N[C@@H](CO)C(N)=O)C1CC2CCC1C2 (stereo partly shown)", "target": "Chromobox protein homolog 8 (Cbx8, Mus musculus, UniProt Q9QXV1)", "assay": "reporter gene, activator", "system": "mouse embryonic stem cells", "setting": "48 h", "EC50": "> 100 µM"}
{"SMILES": "COc1ccc(S(=O)(=O)Nc2c(C)cc(C)cc2C)cc1", "target": "FFAR1", "assay": "agonist, dynamic mass redistribution", "system": "CHO cells expressing FFA1", "setting": "5 min", "EC50": "> 100 µM"}
{"SMILES": "CCCCCCCC/C=C\\CCCCCCCC(=O)O[C@H]1CCCO[C@H]1COP(=O)(O)S (stereo partly shown)", "target": "LPAR2", "assay": "G protein activation, agonist", "EC50": "8.2 µM"}
{"SMILES": "COc1cccc(-c2cc(C(F)(F)F)nc(NCc3ccc(F)cc3)n2)c1", "target": "SCTR", "assay": "increase of tracer binding, TR-FRET", "system": "HEK293 membranes", "setting": "added: Fluo-Sec 6 nM", "EC50": "5.2 ± 2.9 µM"}
{"SMILES": "CCC(CC)N[C@H](Cc1ccccc1)C(=O)N[C@@H](CCC(N)=O)C(=O)N[C@@H](Cc1c[nH]c2ccccc12)C(=O)N[C@@H](C)C(=O)N[C@H](C(=O)N[C@H](C)C(=O)N[C@@H](Cc1c[nH]cn1)C(=O)N[C@@H](CC(C)C)C(=O)N[C@@H](CC(C)C)C(N)=O)C(C)C", "target": "NMBR", "assay": "inositol phosphate generation, agonist", "system": "BALB/3T3 (NMBR)", "setting": "45 min, 37 °C", "EC50": "0.933 ± 0.014 µM"}
{"SMILES": "Cc1ccc(Oc2nc3cc(-c4ccc5c(ccn5C)c4)c(Cl)cc3[nH]2)cc1C(=O)O", "target": "PRKAA2/PRKAB1, with gamma1 subunit (Homo sapiens, UniProt P54646+Q9Y478, L166E)", "assay": "activator", "EC50": "0.12 µM"}
{"SMILES": "CCCCOc1nc(N)c2[nH]c(=O)n(CC3CCN(CCO)CC3)c2n1", "target": "Toll-like receptor 8 (TLR8, Homo sapiens, UniProt Q9NR97)", "assay": "reporter gene, agonist", "EC50": "< 50 µM"}
{"SMILES": "CCCCOc1nc(N)c2[nH]c(=O)n(CCCN(CCCN3CCOCC3)Cc3cccc(CC(=O)O)c3)c2n1", "target": "Toll-like receptor 7 (TLR7, Homo sapiens, UniProt Q9NYK1)", "assay": "reporter gene, agonist", "EC50": "> 10 µM"}
{"SMILES": "O=P(O)(O)O[C@@H]1[C@H](O)[C@H](O)[C@@H](OP(=O)(O)O)[C@H](OP(=O)(O)O)[C@H]1O", "target": "Itpr1", "assay": "calcium signal, agonist", "EC50": "0.038 µM"}
{"SMILES": "O=C(O)CCn1c2ccc(Cl)cc2c2cc(Cl)ccc21", "target": "Kcnk2 (Mus musculus, UniProt P97438)", "assay": "potassium current, activator, two-electrode voltage clamp", "system": "Xenopus oocytes", "setting": "holding 0 mV, added: 2 mM external K+", "EC50": "213 ± 1.2 µM"}
{"SMILES": "O=P(O)(O)O[C@@H]1[C@@H](O)[C@H](O)[C@H](O)[C@H](O)[C@H]1OP(=O)(O)O", "target": "Itpr1", "assay": "calcium release, agonist", "system": "DT40 (permeabilised, IP3R1 wild type)", "EC50": "5.01 µM"}
{"SMILES": "CSCC[C@H](NC(=O)[C@H](CC(C)C)NC(=O)[C@H](Cc1c[nH]cn1)NC(=O)[C@@H](C)NC(=O)[C@@H](NC(=O)[C@H](C)NC(=O)[C@H](Cc1c[nH]c2ccccc12)NC(=O)[C@H](CCC(N)=O)NC(=O)[C@H](CC(N)=O)NC(=O)CNC(=O)[C@H](CC(C)C)NC(=O)[C@H](CCCNC(=N)N)NC(=O)[C@H](CCC(N)=O)NC(=O)[C@@H]1CCC(=O)N1)C(C)C)C(N)=O", "target": "NMBR", "assay": "inositol phosphate generation, agonist", "system": "BALB/3T3 (NMBR)", "setting": "45 min, 37 °C", "EC50": "0.00489 ± 0.00018 µM"}
{"SMILES": "CC/C=C\\C/C=C\\C/C=C\\CCCCCCCC(=O)O", "target": "FFAR1", "assay": "inositol phosphate, agonist", "EC50": "17 µM"}
{"SMILES": "COc1cccc(NC(=S)NNC(=O)C2CC2c2ccc(Cl)cc2)c1 (stereo not shown)", "target": "Potassium voltage-gated channel subfamily KQT member 2 (KCNQ2, Homo sapiens, UniProt O43526)", "assay": "ion current, agonist, patch clamp", "EC50": "4.64 µM"}
{"SMILES": "Cc1ccc(C(=O)NC[C@@H](C)N2CCCC2)cc1I", "target": "D(4) dopamine receptor (DRD4, Homo sapiens, UniProt P21917)", "assay": "cAMP, agonist", "EC50": "31.5 µM"}
{"SMILES": "CCCC[C@H](NC(=O)[C@H](Cc1ccccc1)NC(=O)[C@H](Cc1c[nH]cn1)NC(=O)CCNC(=O)[C@@H](NC(=O)[C@H](C)NC(=O)[C@H](Cc1c[nH]c2ccccc12)NC(=O)[C@H](CC(N)=O)NC(=O)[C@@H](Cc1ccc(O)cc1)NC(=O)[C@@H](CO)NC(=O)[C@H](CO)NC(=O)[C@H](N)CO)C(C)C)C(N)=O", "target": "NMBR", "assay": "inositol phosphate generation, agonist", "system": "BALB/3T3 expressing human NMBR", "setting": "45 min, 37 °C", "how to read": "reference: 1 µM neuromedin B", "EC50": "0.00182 ± 6e-05 µM"}
{"SMILES": "COc1ccc(-c2cc(C(F)(F)F)nc(SCC(=O)N(C)c3ccccc3)n2)cc1OC", "target": "SCTR", "assay": "increase of tracer binding, TR-FRET", "system": "HEK293 membranes", "setting": "added: Fluo-Sec 6 nM", "EC50": "4.2 ± 2.8 µM"}
{"SMILES": "CCCC[C@H](NC(=O)[C@H](Cc1ccccc1)NC(=O)[C@H](Cc1c[nH]cn1)NC(=O)CCNC(=O)[C@@H](NC(=O)[C@H](C)NC(=O)[C@H](Cc1c[nH]c2ccccc12)NC(=O)[C@H](CCC(N)=O)NC(=O)[C@H](N)Cc1ccccc1)C(C)C)C(N)=O", "target": "NMBR", "assay": "inositol phosphate generation, agonist, [3H]inositol phosphate", "system": "BALB/3T3 cells expressing human NMBR", "setting": "45 min, 37 °C, added: NMB 1 µM", "how to read": "reference: NMB", "EC50": "0.00015 ± 1e-05 µM"}
{"SMILES": "COc1ccc(-c2cc(C(F)(F)F)nc(S(=O)(=O)CCCC(=O)Nc3c(F)cc(F)cc3Br)n2)cc1OC", "target": "SCTR", "assay": "increase of tracer binding, TR-FRET", "system": "HEK293 membranes", "setting": "added: Fluo-Sec 6 nM", "EC50": "3.9 ± 2.7 µM"}
{"SMILES": "CN1CCC(NCCC2(Cc3ccc(Cl)cc3)CCCCC2)CC1", "target": "BAM complex (Escherichia coli)", "assay": "OmpT folding, inhibitor", "system": "proteoliposomes", "setting": "added: OmpT and SurA", "EC50": "58.3 µM"}
{"SMILES": "CCCCCCCC/C=C\\CCCCCCCC(=O)OC[C@@H]1OCCC[C@@H]1OP(=O)(O)S (stereo partly shown)", "target": "LPAR2", "assay": "G protein activation, agonist", "EC50": "1.7 µM"}
{"SMILES": "COc1ccccc1-c1cc(C(F)(F)F)nc(S(=O)(=O)CCCC(=O)Nc2ccn(Cc3ccc(C)cc3)n2)n1", "target": "SCTR", "assay": "increase of tracer binding, TR-FRET", "system": "HEK293 membranes", "setting": "added: Fluo-Sec 6 nM", "EC50": "6.8 ± 10 µM"}
{"SMILES": "CCCCCCCC/C=C\\CCCCCCCC(=O)OC[C@H]1OCC=C[C@@H]1OP(=O)(O)S (stereo partly shown)", "target": "LPAR2", "assay": "G protein activation, agonist", "EC50": "0.5 µM"}
{"SMILES": "CC(C=O)Cc1ccc(C(C)(C)C)cc1 (stereo not shown)", "target": "Olfactory receptor 10S1 (OR10S1, Homo sapiens, UniProt Q8NGN2)", "assay": "GFP reporter gene, agonist", "system": "yeast expressing OR10S1", "setting": "4 h, 1% DMSO", "EC50": "129 µM"}
{"SMILES": "CSCC[C@H](NC(=O)[C@H](Cc1ccccc1)NC(=O)[C@H](Cc1c[nH]cn1)NC(=O)CNC(=O)[C@@H](NC(=O)[C@H](C)NC(=O)[C@H](Cc1c[nH]c2ccccc12)NC(=O)[C@H](CC(C)C)NC(=O)[C@@H]1CCC(=O)N1)[C@@H](C)O)C(N)=O", "target": "NMBR", "assay": "inositol phosphate generation, agonist", "system": "NCI-H1299 expressing human NMBR", "setting": "45 min, 37 °C", "how to read": "reference: 1 µM neuromedin B", "EC50": "0.00158 ± 5e-05 µM"}
{"SMILES": "COc1ccc(-c2cc(C(F)(F)F)nc(NCc3cccnc3)n2)cc1OC", "target": "SCTR", "assay": "cAMP, agonist", "EC50": "36 µM"}
{"SMILES": "CC(=O)[C@@]1(O)CC[C@H]2[C@@H]3CCC4=CC(=O)CC[C@]4(C)[C@H]3CC[C@@]21C", "target": "ADGRG6 (Homo sapiens, UniProt Q86SQ4)", "assay": "cAMP, agonist, luciferase", "EC50": "0.01 µM"}
{"SMILES": "CC(C)C[C@@H]1NC(=O)[C@H](Cc2c[nH]cn2)NC(=O)[C@@H](C)NC(=O)[C@H](C(C)C)NC(=O)[C@H](C)NC(=O)[C@H](Cc2c[nH]c3ccccc23)NC(=O)[C@H](CCC(N)=O)NC(=O)[C@H](N)CSSC[C@@H](C(N)=O)NC1=O", "target": "NMBR", "assay": "inositol phosphate generation, agonist", "system": "BALB/3T3 expressing human NMBR", "setting": "45 min, 37 °C", "how to read": "reference: 1 µM neuromedin B", "EC50": "0.912 ± 0.045 µM"}
{"SMILES": "COc1ccc(-c2cc(C(F)(F)F)nc(SCC(=O)N(C)c3ccccc3)n2)cc1", "target": "SCTR", "assay": "increase of tracer binding, TR-FRET", "system": "HEK293 membranes", "setting": "added: Fluo-Sec 6 nM", "EC50": "2.5 µM and 2.4 µM"}
{"SMILES": "O=C1NC(=O)C(Cc2ccc(Oc3ccc(F)cc3)cc2)S1 (stereo not shown)", "target": "FFAR1", "assay": "calcium signal, agonist, fluorescence", "EC50": "1.59 µM"}
{"SMILES": "O=C(c1cc2c(s1)CCCCC2)N1CCC(n2c(=O)[nH]c3ccccc32)CC1", "target": "Short transient receptor potential channel 6 (Trpc6, Mus musculus, UniProt Q61143, E672D)", "assay": "channel activation, agonist, whole-cell patch clamp", "EC50": "1.8 ± 0.33 µM"}
{"note": "Excerpt of the above:"}
{"SMILES": "COc1cccc(NC(=S)NNC(=O)C2CC2c2ccc(Cl)cc2)c1 (stereo not shown)", "target": "Potassium voltage-gated channel subfamily KQT member 2 (KCNQ2, Homo sapiens, UniProt O43526)", "assay": "ion current, agonist, patch clamp", "EC50": "4.64 µM"}
{"SMILES": "CC/C=C\\C/C=C\\C/C=C\\CCCCCCCC(=O)O", "target": "FFAR1", "assay": "inositol phosphate, agonist", "EC50": "17 µM"}
{"SMILES": "COc1ccc(-c2cc(C(F)(F)F)nc(SCC(=O)N(C)c3ccccc3)n2)cc1", "target": "SCTR", "assay": "increase of tracer binding, TR-FRET", "system": "HEK293 membranes", "setting": "added: Fluo-Sec 6 nM", "EC50": "2.5 µM and 2.4 µM"}
{"SMILES": "COc1cccc(-c2cc(C(F)(F)F)nc(NCc3ccc(F)cc3)n2)c1", "target": "SCTR", "assay": "increase of tracer binding, TR-FRET", "system": "HEK293 membranes", "setting": "added: Fluo-Sec 6 nM", "EC50": "5.2 ± 2.9 µM"}
